{"data": "Measurements from different studies", "note": "Parts stem from different laboratories: compare values within a part only. “And” joins repeats or separate records; there may be more than shown.", "chain of UniProt P11802 (whole entry, looked up)": "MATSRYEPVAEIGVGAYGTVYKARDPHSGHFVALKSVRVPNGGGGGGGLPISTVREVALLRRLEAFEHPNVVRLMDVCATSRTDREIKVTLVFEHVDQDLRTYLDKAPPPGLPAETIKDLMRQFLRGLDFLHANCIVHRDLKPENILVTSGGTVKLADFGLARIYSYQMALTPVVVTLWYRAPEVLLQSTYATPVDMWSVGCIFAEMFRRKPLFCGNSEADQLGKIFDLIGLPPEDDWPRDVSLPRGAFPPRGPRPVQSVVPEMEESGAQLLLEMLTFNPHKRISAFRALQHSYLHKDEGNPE", "chain of UniProt Q13882 (whole entry, looked up)": "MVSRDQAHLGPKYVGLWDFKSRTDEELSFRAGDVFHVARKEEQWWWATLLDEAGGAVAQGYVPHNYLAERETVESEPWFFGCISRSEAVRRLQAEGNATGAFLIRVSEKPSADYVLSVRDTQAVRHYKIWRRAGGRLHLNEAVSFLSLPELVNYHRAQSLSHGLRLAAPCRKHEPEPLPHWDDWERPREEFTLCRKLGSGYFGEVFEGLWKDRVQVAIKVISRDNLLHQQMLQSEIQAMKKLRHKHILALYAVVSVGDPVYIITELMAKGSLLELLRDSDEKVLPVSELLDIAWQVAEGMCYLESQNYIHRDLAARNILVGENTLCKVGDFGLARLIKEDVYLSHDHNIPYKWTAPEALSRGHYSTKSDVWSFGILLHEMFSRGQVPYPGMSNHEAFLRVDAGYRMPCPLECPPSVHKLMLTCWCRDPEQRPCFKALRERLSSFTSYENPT", "chain of UniProt P42679 (whole entry, looked up)": "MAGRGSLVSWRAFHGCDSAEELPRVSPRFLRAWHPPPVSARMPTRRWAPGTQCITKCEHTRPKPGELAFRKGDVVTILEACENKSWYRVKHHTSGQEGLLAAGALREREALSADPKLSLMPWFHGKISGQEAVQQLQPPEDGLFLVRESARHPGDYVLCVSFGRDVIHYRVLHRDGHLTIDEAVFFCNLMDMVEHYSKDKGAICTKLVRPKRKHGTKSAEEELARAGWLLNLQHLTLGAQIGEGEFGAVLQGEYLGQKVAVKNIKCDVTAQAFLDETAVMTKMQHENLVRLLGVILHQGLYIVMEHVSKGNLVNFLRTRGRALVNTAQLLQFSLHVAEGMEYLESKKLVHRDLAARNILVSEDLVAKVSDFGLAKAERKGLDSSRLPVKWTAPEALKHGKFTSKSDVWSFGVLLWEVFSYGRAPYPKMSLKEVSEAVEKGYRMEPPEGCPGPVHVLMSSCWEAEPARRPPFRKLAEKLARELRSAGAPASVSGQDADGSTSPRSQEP", "chain of UniProt O43683 (whole entry, looked up)": "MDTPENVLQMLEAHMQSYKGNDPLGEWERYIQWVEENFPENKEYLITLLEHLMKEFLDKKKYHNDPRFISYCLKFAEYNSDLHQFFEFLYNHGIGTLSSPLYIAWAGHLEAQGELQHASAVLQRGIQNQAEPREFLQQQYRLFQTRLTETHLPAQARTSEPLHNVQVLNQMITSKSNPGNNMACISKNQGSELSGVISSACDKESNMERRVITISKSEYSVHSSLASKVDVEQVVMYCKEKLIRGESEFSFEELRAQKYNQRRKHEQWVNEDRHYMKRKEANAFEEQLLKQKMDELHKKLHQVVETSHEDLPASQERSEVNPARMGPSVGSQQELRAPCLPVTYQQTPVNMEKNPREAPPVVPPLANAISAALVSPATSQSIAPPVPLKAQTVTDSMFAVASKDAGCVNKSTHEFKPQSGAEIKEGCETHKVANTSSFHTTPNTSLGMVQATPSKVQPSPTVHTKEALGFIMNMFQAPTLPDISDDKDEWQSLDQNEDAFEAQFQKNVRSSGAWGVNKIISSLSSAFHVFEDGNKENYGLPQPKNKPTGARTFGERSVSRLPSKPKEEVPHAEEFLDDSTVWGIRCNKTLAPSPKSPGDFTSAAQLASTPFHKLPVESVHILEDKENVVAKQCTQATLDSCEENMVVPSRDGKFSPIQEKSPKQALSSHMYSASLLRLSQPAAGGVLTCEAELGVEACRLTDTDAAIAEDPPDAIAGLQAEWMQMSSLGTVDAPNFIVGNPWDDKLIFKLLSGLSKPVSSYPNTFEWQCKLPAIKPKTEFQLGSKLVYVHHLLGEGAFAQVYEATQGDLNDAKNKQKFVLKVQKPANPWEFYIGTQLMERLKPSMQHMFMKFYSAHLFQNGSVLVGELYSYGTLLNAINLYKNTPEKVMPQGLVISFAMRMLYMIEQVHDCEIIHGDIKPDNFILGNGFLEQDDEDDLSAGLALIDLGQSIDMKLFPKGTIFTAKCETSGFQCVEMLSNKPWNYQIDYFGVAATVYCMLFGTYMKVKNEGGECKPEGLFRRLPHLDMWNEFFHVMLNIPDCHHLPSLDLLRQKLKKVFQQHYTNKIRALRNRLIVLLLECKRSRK", "chain of UniProt P42336 (whole entry, unmodified, looked up)": "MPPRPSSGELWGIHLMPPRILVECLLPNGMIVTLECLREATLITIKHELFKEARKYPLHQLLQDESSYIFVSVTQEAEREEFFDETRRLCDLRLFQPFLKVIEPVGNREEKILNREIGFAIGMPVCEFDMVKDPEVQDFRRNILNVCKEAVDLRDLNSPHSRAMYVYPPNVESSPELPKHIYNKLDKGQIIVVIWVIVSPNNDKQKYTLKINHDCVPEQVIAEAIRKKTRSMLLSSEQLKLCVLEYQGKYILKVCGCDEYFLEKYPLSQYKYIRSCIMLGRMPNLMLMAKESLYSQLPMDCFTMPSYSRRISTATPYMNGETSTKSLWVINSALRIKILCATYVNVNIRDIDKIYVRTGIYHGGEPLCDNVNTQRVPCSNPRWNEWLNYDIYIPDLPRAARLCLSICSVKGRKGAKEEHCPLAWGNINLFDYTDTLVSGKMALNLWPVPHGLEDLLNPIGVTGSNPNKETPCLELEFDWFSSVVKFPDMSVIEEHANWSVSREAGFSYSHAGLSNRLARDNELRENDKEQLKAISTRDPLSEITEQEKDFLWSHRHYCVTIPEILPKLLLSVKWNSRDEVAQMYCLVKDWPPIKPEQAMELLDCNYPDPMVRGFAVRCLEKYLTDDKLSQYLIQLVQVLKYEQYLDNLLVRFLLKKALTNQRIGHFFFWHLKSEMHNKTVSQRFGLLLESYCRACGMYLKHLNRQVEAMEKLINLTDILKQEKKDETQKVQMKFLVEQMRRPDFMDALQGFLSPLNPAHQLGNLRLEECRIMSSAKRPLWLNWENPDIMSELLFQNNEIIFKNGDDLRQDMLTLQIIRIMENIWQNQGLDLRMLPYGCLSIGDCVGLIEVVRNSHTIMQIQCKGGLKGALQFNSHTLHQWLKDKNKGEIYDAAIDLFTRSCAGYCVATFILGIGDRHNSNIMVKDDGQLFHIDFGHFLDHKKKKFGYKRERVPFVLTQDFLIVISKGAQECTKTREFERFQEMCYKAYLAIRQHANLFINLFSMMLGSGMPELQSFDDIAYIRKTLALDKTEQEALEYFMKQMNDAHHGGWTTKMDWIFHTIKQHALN", "chain of UniProt O15197 (whole entry, looked up)": "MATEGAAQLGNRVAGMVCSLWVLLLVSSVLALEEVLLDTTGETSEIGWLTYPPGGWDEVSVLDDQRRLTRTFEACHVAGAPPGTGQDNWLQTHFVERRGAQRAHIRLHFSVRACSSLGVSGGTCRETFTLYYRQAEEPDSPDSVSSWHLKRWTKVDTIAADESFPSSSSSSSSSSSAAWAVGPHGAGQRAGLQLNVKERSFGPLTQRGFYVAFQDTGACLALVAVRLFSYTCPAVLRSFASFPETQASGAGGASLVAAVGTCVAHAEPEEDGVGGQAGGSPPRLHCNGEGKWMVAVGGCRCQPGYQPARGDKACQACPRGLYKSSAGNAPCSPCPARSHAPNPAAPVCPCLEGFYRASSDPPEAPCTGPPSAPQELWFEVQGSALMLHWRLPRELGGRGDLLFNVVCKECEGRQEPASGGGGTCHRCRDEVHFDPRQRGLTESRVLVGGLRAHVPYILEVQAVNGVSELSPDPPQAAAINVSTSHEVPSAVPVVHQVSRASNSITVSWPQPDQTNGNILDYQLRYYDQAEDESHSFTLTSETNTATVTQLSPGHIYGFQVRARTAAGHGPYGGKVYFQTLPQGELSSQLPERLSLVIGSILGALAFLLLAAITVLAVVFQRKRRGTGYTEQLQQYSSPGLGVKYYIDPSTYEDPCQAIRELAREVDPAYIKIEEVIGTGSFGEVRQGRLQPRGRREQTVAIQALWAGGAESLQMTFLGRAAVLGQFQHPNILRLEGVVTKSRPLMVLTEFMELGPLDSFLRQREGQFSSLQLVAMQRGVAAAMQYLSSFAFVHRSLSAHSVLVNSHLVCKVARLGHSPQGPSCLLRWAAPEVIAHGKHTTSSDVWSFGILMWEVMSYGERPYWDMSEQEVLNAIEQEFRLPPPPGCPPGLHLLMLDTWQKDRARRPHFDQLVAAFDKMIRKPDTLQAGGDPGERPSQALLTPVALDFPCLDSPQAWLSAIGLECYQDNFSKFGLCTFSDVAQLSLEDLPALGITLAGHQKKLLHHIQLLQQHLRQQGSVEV"}
{"data": "Sample 1", "Compound": "Cc1cc(-n2nc(Cc3cc(F)cc(C(F)(F)F)c3)nc2C)ccc1C(N)=O", "technique": "competition with immobilised ligand", "tested at": "1 µM"}
{"target": "PIK3CA (Homo sapiens, UniProt P42336, H1047L)", "test": "cell-free assay", "remaining binding": "87%"}
{"target": "ALK (Homo sapiens, UniProt Q9UM73)", "test": "cell-free assay", "remaining binding": "100%"}
{"target": "FLT4 (Homo sapiens, UniProt P35916)", "test": "cell-free assay", "remaining binding": "97%"}
{"target": "PIK3CB (Homo sapiens, UniProt P42338)", "test": "cell-free assay", "remaining binding": "85%"}
{"target": "PRKACB (Homo sapiens, UniProt P22694)", "test": "cell-free assay", "remaining binding": "100%"}
{"target": "TEC (Homo sapiens, UniProt P42680)", "test": "binding", "remaining binding": "100%"}
{"target": "PTK6 (Homo sapiens, UniProt Q13882)", "test": "cell-free assay", "remaining binding": "100%"}
{"target": "GRK2 (Homo sapiens, UniProt P25098)", "test": "cell-free assay", "remaining binding": "100%"}
{"target": "EPHB6 (Homo sapiens, UniProt O15197)", "test": "cell-free assay", "remaining binding": "100%"}
{"target": "FLT3 (Homo sapiens, UniProt P36888, N841I)", "test": "cell-free assay", "remaining binding": "99%"}
{"target": "MATK (Homo sapiens, UniProt P42679)", "test": "cell-free assay", "remaining binding": "100%"}
{"target": "BUB1 (Homo sapiens, UniProt O43683)", "test": "cell-free assay", "remaining binding": "100%"}
{"target": "PLK3 (Homo sapiens, UniProt Q9H4B4)", "test": "cell-free assay", "remaining binding": "100%"}
{"target": "CDK4 (Homo sapiens, UniProt P11802)", "test": "cell-free assay", "remaining binding": "100%"}
{"target": "PRPF4B (Homo sapiens, UniProt Q13523)", "test": "cell-free assay", "remaining binding": "54%"}
{"data": "Sample 2", "Structure (SMILES)": "CC(C)n1cnc(-c2ccc(F)cc2)c1-c1ncc(C(=O)Nc2ccc(N3CCN(C)CC3)cc2)[nH]1", "technique": "phase 2a clinical trial", "species": "patients with idiopathic pulmonary fibrosis"}
{"test": "measured: metabolism and nutrition disorders (SOC)", "conditions": "60 mg once daily, Grade 5", "patients with treatment-emergent adverse events [%]": 0}
{"test": "measured: gastro-oesophageal reflux disease", "conditions": "60 mg once daily, Grade 5", "patients with treatment-emergent adverse events [%]": 0}
{"test": "measured: drug-induced liver injury", "conditions": "dose not given, Grade 4, all drug arms total", "patients with treatment-emergent adverse events [%]": 0}
{"test": "measured: electrocardiogram QT prolonged", "conditions": "dose not given, Grade 3, all drug arms total", "patients with treatment-emergent adverse events [%]": 0}
{"test": "measured: idiopathic pulmonary fibrosis", "conditions": "60 mg once daily, Grade 1", "patients with treatment-emergent adverse events [%]": 0}
{"data": "Sample 3", "target": "Beta-1 adrenergic receptor (ADRB1, Homo sapiens, UniProt P08588)", "action": "agonist", "chain of UniProt P08588 (whole entry, looked up)": "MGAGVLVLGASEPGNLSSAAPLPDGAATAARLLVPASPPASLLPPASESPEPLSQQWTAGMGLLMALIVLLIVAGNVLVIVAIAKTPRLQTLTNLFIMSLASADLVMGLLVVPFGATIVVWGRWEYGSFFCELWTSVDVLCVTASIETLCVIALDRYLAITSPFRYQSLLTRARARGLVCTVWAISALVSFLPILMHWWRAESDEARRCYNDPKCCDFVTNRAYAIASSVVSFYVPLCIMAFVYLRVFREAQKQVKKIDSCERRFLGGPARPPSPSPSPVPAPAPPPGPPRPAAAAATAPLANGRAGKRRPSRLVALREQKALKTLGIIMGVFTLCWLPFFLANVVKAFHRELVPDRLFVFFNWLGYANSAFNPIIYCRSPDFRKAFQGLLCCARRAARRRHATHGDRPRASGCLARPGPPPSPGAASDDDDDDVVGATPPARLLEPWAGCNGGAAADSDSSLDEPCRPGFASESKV"}
{"Compound": "CC#CCn1cc2c3c(cccc31)[C@H](CC(C)C)N[C@H](C(=O)NCCOC)C2", "EC50 [µM]": "≥ 100"}
{"Compound": "CC(C)(C)NC[C@@H](O)c1ccc(O)c(CO)n1", "EC50 [µM]": 0.0372}
{"Compound": "CC(C)N(C)C(=O)c1cc(-c2cnc(C(C)(C)C)nc2)nc2cc(F)ccc12", "EC50 [µM]": "≥ 100"}
{"Compound": "FC(F)(F)c1cccc(-c2noc(-c3c[nH]nc3-c3ccccc3)n2)c1", "EC50 [µM]": "≥ 100"}
{"data": "Sample 4", "species": "human", "medium": "microsomes or S9", "tested at": "2 µM", "time": "0.5 h"}
{"Compound": "O=S(=O)(c1cccc2cccnc12)N1CCCC1c1noc(CO)n1 (stereo not drawn)", "remaining compound [%]": 77.4}
{"Compound": "CCOc1cc(=O)n2c(c1C(=O)NC1CCN(Cc3ccccc3)CC1)CCCCC2", "remaining compound [%]": "> 99"}
{"Compound": "CN1C(=O)N(C)C2(CCN(CCOc3ccccc3)C2)C1=O (stereo not drawn)", "remaining compound [%]": 98.6}
{"Compound": "CC1(C)C(C(=O)O)C1C(=O)Nc1c[nH]c(=O)[nH]c1=O (stereo not drawn)", "remaining compound [%]": 56.1}
{"data": "Further values, each from its own experiment", "medium": "plasma", "route": "oral"}
{"Structure (SMILES)": "COc1ccc(-c2c(Nc3ccccn3)[nH]c3c(C4=CCCCC4)c(-c4ccccc4)nn3c2=O)cc1", "test": "LC-MS/MS", "system": "human", "conditions": "50 mg once daily", "quantity": "Cmax, dose-normalised", "result": "32.6 ng/mL/mg and 34.6 ng/mL/mg and 35.6 ng/mL/mg"}
{"Structure (SMILES)": "COC(=O)c1cc(Cl)ccc1N(C)C(=O)c1ccn2ncc(-c3ccc(C(N)=O)cc3)c2c1", "system": "C57BL/6 IFN-γ knockout mouse, female", "conditions": "10 mg/kg, 1 h", "quantity": "plasma concentration", "result": "24 nM"}
{"note": "Excerpt of the above (sample 1):"}
{"target": "FLT4 (Homo sapiens, UniProt P35916)", "test": "cell-free assay", "remaining binding": "97%"}
{"target": "ALK (Homo sapiens, UniProt Q9UM73)", "test": "cell-free assay", "remaining binding": "100%"}
{"target": "PRKACB (Homo sapiens, UniProt P22694)", "test": "cell-free assay", "remaining binding": "100%"}
{"target": "BUB1 (Homo sapiens, UniProt O43683)", "test": "cell-free assay", "remaining binding": "100%"}
